Results pooled from the literature.
Lines come from different studies, so protocols differ. Numbers after ± are the reported error.
B1: protein (Vibrio cholerae, UniProt A0A060KT36); chain MKDNSTSAVSSWLGYKIQEYRLTQRLLEANNSSCIGFEILDDLEEHTGSTSTFEQDKISTTGRNIVSNHSKDLWKTLSNWMDLIDSGEIDVDNTIFLLFTNKRCHSEVLQLLSTSQATEEASKAFDEILKIVSHPSPSIANYLNNFSKSKTDACRLISKFTYIYGSGSAPHDLRESYKLHRLGALEEHLDEIMYEILGWVSDVLTLAAEKRQPTIVRAKDFGARLGEIESKYRQKTILNYFCNRSSESEDVQNTIKDAPNYIKQLNLINVDDSELEEAAIANLETKDAVVEWTLNGDVQDYSYRYYQRELRRCWGIQKQKIHLDFNGRPETEVGQRLYIECLNNVTRYYLENKKVGDFFAHGTLHSMADKLTIGWHPEFDKKLGDPDA
B2: aba3 60-440 (Botrytis cinerea, UniProt A0A384JQC9); sequence looked up; chain KEHQDTWYYPPDIANDLQSINLPAELKGEIFACAWEYTRCVIPNYTNWNRYVAFMRIIIMGIIAEFRGEMVDVTASNNLLGYDLDATLAALFEGTPGHKEMAREYKTFLLITADKASERRDGELFRRYVNALAQSPRHWFRMRDCDALARFTIASALACNDLDDIWFTEDQFEILTEIGDTLYDAVAFYKHRAEGETNSTFAYMPEDLRIKAYSECREILWALDAAWARNPKLANVINFVRFFGGPIHMMMRRYRFVEENLTIGKSETDKVVDQTRKNFKLWNRVDANKRSVLNTQRYKALIARSEELMFPGLAEFLEMGGDGICDKCKYRESYGAELSHQFGGVELCSECRLSWRKYLECFVERATKVFPELKTHFEVPV
B3: protein 16-92 (Mycobacterium tuberculosis, UniProt P96276); chain EVADGLTRREHDILAFERQWWKFAGVKEEAIKELFSMSATRYYQVLNALVDRPEALAADPMLVKRLRRLRASRQKAR

Substance = B1 (protein); target or system = itself; assay = cryo-EM; measurement = subunits per oligomer; value = 4
Substance = B2 (aba3 60-440); target or system = itself; assay = SEC; measurement = subunits per oligomer; value = 2
Substance = B3 (protein 16-92); target or system = itself; assay = crystal structure; measurement = subunits per oligomer; value = 2
Substance = cysH (Mycobacterium tuberculosis, UniProt P9WIK3); target or system = Nc1ncnc2c1ncn2[C@@H]1O[C@H](COP(=O)(O)OS(=O)(=O)O)[C@@H](O)[C@H]1O; assay = steady-state kinetics; setting = pH 7.5; measurement = Km; value = 24.3 µM
Substance = PaFS D92A (Diaporthe amygdali); target or system = CC(C)=CCC/C(C)=C/CC/C(C)=C/CO[P@@](=O)(O)OP(=O)(O)O; assay = steady-state kinetics; measurement = Km; value = 1.9 µM
Substance = YTMSLGAENSVAY; assay = AIM; system = peptide, CD8+ T cells from PBMC, human donors; setting = dose not given; measurement = response magnitude per positive donor; value = 106
Substance = p2o (Trametes ochracea, UniProt Q7ZA32); target or system = Nc1ccc2nc3ccc(N)cc3[s+]c2c1; assay = steady-state kinetics; setting = pH 6.5, 22 °C, apparent; measurement = Km; value = 200 µM
Substance = CC[C@H](C)[C@H](NC(=O)[C@H](CC(C)C)NC(=O)[C@H](CO)NC(=O)[C@H](Cc1c[nH]cn1)NC(=O)[C@@H](NC(=O)[C@H](CC(C)C)NC(=O)[C@H](CO)NC(=O)[C@@H](NC(=O)[C@H](Cc1ccc(O)cc1)NC(=O)[C@H](CC(N)=O)NC(=O)[C@H](CC(N)=O)NC(=O)[C@@H](NC(=O)[C@H](CCC(=O)O)NC(=O)[C@H](CCCNC(=N)N)NC(=O)[C@H](CC(=O)O)NC(=O)[C@H](Cc1c[nH]c2ccccc12)NC(=O)[C@H](CCC(=O)O)NC(=O)[C@H](CCSC)NC(=O)[C@H](Cc1c[nH]c2ccccc12)NC(C)=O)[C@@H](C)CC)[C@@H](C)O)[C@@H](C)CC)C(=O)N[C@@H](CCC(=O)O)C(=O)N[C@@H](CCC(=O)O)C(=O)N[C@@H](CO)C(=O)N[C@@H](CCC(N)=O)C(=O)N[C@@H](CC(N)=O)C(=O)N[C@@H](CCC(N)=O)C(=O)N[C@@H](CCC(N)=O)C(=O)N[C@@H](CCC(=O)O)C(=O)N[C@@H](CCCCN)C(=O)N[C@@H](CC(N)=O)C(=O)N[C@@H](CCC(=O)O)C(=O)N[C@@H](CCC(N)=O)C(=O)N[C@@H](CCC(=O)O)C(=O)N[C@@H](CC(C)C)C(=O)N[C@@H](CC(C)C)C(=O)NCC(=O)N[C@@H](CO)C(=O)NCC(=O)N[C@@H](CSCC(=O)O[C@H]1CC[C@@]2(C)C(=CC[C@H]3[C@@H]4CC[C@H]([C@H](C)CCCC(C)(C)O)[C@@]4(C)CC[C@@H]32)C1)C(N)=O; assay = Trp fluorescence; system = POPC/cholesterol vesicles; setting = 5 µM, pH 7.4, 25 °C; measurement = partition coefficient; value = 516 ± 90
Substance = DASGKPVPY; assay = AIM; system = peptide, CD8+ T cells from PBMC, human donors; setting = dose not given; measurement = response magnitude per positive donor; value = 113
Substance = FolB (Mycobacterium tuberculosis, UniProt P9WNC5); target or system = Nc1nc2c(c(=O)[nH]1)N=C([C@H](O)[C@@H](O)CO)CN2; assay = steady-state kinetics; setting = pH 7, 25 °C; measurement = Km; value = 0.154 µM

A few entries again:
Substance = YTMSLGAENSVAY; assay = AIM; system = peptide, CD8+ T cells from PBMC, human donors; setting = dose not given; measurement = response magnitude per positive donor; value = 106
Substance = p2o (Trametes ochracea, UniProt Q7ZA32); target or system = Nc1ccc2nc3ccc(N)cc3[s+]c2c1; assay = steady-state kinetics; setting = pH 6.5, 22 °C, apparent; measurement = Km; value = 200 µM
